Published values of several laboratories.
Each numbered part is a random draw from the data of one study; scales do not carry over between parts.
Sequence of UniProt Q6DT37 (whole entry, looked up): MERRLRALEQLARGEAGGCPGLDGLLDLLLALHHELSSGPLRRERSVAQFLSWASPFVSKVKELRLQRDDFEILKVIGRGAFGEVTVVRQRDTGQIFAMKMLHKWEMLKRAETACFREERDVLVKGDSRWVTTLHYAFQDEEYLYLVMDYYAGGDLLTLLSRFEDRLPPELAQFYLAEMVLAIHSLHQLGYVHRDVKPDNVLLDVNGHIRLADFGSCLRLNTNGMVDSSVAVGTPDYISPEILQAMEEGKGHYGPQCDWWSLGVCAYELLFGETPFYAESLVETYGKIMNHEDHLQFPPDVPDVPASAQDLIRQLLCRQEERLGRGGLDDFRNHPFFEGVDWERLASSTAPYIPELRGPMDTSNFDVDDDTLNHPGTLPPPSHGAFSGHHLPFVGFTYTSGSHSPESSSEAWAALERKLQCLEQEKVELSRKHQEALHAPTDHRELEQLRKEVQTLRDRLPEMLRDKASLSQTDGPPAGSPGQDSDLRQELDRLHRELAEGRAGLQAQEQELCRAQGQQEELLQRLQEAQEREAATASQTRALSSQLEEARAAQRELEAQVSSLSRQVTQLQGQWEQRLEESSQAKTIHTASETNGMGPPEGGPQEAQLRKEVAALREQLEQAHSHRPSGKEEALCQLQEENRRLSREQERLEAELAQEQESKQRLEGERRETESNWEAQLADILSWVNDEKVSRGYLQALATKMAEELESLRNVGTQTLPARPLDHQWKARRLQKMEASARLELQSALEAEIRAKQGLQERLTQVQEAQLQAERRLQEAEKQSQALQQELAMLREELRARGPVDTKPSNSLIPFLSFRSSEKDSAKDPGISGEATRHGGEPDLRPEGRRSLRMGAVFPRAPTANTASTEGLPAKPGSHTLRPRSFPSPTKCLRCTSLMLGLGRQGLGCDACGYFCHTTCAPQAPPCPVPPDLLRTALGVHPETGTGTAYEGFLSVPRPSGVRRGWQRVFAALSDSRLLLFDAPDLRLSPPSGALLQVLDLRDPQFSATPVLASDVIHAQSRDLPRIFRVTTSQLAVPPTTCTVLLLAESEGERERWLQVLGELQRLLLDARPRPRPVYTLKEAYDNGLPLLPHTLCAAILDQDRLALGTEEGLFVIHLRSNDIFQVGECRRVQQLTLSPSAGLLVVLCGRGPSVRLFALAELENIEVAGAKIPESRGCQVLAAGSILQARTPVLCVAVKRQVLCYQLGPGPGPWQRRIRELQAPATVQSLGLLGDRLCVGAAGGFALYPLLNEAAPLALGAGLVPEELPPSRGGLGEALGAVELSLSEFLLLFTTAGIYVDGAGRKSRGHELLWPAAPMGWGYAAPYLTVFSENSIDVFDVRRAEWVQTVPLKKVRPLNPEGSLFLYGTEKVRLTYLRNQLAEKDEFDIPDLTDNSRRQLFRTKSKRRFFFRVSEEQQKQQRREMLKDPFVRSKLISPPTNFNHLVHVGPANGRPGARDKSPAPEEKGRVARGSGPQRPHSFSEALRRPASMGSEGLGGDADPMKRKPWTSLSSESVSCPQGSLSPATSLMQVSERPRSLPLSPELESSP
Sequence of UniProt P49759 (whole entry, looked up): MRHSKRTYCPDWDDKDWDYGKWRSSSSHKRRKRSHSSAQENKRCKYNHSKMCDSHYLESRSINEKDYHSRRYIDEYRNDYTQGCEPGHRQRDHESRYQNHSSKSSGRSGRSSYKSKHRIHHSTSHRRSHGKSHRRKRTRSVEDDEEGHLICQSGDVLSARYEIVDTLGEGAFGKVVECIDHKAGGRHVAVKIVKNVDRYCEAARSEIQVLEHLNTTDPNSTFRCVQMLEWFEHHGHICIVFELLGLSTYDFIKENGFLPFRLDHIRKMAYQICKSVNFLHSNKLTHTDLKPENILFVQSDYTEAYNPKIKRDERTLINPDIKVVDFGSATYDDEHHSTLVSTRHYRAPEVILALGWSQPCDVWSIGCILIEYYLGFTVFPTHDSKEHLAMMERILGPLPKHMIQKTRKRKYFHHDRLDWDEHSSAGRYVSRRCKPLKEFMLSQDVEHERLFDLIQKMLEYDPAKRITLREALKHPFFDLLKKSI
Sequence of UniProt P22455 (whole entry, looked up): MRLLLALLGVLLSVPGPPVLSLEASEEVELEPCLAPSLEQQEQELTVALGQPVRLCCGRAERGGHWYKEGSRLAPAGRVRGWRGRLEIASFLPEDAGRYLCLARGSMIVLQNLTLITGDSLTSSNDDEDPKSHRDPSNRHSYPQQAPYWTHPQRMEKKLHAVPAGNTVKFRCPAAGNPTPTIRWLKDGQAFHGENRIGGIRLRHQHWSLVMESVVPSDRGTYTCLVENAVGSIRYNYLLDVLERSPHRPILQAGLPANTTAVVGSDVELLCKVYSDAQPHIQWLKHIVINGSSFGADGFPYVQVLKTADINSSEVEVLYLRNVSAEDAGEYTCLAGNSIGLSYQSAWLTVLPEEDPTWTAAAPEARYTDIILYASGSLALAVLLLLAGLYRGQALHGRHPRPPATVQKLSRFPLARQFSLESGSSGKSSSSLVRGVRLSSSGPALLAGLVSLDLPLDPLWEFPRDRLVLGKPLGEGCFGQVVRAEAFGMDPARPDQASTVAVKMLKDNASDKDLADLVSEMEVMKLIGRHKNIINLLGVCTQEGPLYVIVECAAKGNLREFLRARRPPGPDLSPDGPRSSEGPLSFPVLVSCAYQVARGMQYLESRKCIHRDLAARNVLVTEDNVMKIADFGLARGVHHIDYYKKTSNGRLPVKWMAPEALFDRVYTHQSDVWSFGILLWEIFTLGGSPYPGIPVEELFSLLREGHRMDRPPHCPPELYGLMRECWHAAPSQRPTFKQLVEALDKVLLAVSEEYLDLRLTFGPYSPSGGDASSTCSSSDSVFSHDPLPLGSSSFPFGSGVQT
Sequence of UniProt P42685 (whole entry, looked up): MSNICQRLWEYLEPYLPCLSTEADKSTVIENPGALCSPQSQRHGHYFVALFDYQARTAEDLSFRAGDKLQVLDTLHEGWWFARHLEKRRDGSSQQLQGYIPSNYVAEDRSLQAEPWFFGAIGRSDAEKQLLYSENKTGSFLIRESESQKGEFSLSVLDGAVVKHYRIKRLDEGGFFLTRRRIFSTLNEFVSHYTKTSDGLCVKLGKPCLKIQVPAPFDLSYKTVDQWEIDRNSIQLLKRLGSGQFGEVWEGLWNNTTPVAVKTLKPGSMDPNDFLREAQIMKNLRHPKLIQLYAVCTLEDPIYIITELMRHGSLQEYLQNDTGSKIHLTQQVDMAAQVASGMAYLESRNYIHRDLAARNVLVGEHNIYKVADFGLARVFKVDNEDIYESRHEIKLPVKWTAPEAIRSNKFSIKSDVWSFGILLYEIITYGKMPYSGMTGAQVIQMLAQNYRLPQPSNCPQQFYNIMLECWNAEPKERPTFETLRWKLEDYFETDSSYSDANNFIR

Study 1
Compound: Cc1noc([C@H]2C[C@@H](c3ccc(C(F)(F)F)cc3)CN(C(=O)N3CCS(=O)(=O)C3)C2)n1
Concentration: 1 µM
target	effect on	method	remaining binding
MARK1 (Homo sapiens, UniProt Q9P0L2)	cell-free assay	competition with immobilised ligand	91%
CDC42BPG (Homo sapiens, UniProt Q6DT37)		competition binding	100%
Tyrosine-protein kinase ABL1, phosphorylated (ABL1, Homo sapiens, UniProt P00519, H396P)	cell-free assay	competition with immobilised ligand	100%
FGFR4 (Homo sapiens, UniProt P22455)	cell-free assay	competition with immobilised ligand	100%
CLK1 (Homo sapiens, UniProt P49759)	cell-free assay	competition with immobilised ligand	100%
FRK (Homo sapiens, UniProt P42685)	cell-free assay	competition with immobilised ligand	100%
NLK (Homo sapiens, UniProt Q9UBE8)	cell-free assay	competition with immobilised ligand	70%

Study 2
Cell line: mouse MPNST tumor cells
Method: high-content nuclear imaging
Item: cell number
Concentration: 10 µM
Time: 12 h
Notes: mean of 2 replicates
Relative to: plate mean
Reading: higher = more cells
Structure (SMILES)	nuclei count [z-score]
CCCCNc1ccc(C(=O)OCCOCCOCCOCCOCCOCCOCCOCCOCCOC)cc1	0.923
CC(C)Oc1cccc(-n2c(CCc3c[nH]c4ccc(Br)cc34)nc3ccccc3c2=O)c1	0.812
C[C@H](NC(=O)CNC(=O)c1cccc(Cl)c1)c1ccccc1	0.953
CCN(CC)CCCCC1CCN(CC(=O)N2c3ccccc3C(=O)Nc3cccnc32)CC1	0.192
CC[C@H]1OC(=O)[C@H](C)[C@@H](O[C@H]2C[C@@](C)(OC)[C@@H](O)[C@H](C)O2)[C@H](C)[C@@H](O[C@@H]2O[C@H](C)C[C@H](N(C)C)[C@H]2O)[C@](C)(O)C[C@@H](C)C(=O)[C@H](C)[C@@H](O)[C@]1(C)O	1.35

Study 3
Host: human
Matrix: microsomes or S9
Concentration: 2 µM
Time: 0.5 h
Compound	remaining compound [%]
CCOC(=O)Cc1c(-c2cc3ccccc3n2C)[nH]c2ccccc12	0.268
CC1(C)Oc2c(ccnc2Cl)[C@H](N(Cc2ncc[nH]2)c2ccc(Cl)cc2Cl)[C@H]1O	2.48
Cc1nc(C)c(S(=O)(=O)N2C[C@H]3CCc4nnc(-c5ccncc5)n4[C@H]3C2)s1	91.1
C[C@H](Nc1ncnc2[nH]cnc12)c1cc2ccccc2nc1-c1ccccc1	63.9
CC(C)(C)OC(=O)N[C@@H](CC(=O)N1CCCN(S(C)(=O)=O)CC1)Cc1cc(F)c(F)cc1F	13.1
CCC(O)(c1ccccc1)c1cc(Cl)ccc1N (stereo not drawn)	62.6
COc1cccc(-c2cn3ncnc3n2Cc2cccc(Br)c2)c1	54.7
Cc1nn(-c2n[nH]c(C)c2Br)c(C)c1C	59.3
CCC1c2cccn2-c2sc3c(c2CN1C(=O)NCCCOC)CCCC3 (stereo not drawn)	2.9

Study 4
Target: Insulin receptor (INSR, Homo sapiens, UniProt P06213)
Sequence of UniProt P06213 (whole entry, looked up): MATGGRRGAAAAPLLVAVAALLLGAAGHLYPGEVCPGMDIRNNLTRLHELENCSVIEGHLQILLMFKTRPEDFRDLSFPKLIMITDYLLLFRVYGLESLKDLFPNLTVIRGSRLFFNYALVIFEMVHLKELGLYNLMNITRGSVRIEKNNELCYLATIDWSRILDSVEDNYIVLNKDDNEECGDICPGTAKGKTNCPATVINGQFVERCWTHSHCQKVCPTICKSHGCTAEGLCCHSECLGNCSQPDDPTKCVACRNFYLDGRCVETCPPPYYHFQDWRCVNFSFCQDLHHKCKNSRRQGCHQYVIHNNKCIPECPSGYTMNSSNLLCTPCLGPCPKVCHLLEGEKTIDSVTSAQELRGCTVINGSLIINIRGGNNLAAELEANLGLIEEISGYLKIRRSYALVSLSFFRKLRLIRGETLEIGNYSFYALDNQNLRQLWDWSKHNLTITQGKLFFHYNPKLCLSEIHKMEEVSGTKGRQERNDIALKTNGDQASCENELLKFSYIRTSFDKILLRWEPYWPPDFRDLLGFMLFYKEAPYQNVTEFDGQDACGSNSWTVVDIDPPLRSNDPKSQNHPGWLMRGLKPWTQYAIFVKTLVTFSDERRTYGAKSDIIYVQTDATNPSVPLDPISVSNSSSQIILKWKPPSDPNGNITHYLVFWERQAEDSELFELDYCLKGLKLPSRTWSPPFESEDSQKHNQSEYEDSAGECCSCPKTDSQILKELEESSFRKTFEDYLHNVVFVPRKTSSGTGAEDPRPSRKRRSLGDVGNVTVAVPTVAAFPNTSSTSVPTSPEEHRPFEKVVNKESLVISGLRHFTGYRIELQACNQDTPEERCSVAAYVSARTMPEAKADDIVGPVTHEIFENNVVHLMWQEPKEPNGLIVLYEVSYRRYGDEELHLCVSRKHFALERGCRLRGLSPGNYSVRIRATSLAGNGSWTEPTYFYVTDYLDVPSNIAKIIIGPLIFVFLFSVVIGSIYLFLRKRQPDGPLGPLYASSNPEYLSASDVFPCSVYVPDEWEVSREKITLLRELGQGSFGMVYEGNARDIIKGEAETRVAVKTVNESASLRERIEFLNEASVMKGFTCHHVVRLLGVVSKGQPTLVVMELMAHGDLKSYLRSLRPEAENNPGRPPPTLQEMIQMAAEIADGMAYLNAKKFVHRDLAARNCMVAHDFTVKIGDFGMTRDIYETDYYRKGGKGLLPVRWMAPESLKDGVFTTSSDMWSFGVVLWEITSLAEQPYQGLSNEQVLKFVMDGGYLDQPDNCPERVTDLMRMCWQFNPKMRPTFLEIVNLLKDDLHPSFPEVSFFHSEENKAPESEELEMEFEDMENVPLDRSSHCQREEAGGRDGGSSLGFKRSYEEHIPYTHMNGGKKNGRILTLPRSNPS
Effect on: enzyme activity
Mode: inhibitor
Concentration: 0.5 µM
Relative to: control
Compound	remaining activity
Oc1ccc(-c2nc(-c3ccncc3)c(-c3ccc(F)cc3)[nH]2)cc1	91.5%
O=C(Nc1cccc(Nc2cc(Nc3cccc(C(F)(F)F)c3)ncn2)c1)C1CC1	103%
Cn1c2ccccc2c2c3c(c4c5ccccc5n(CCC#N)c4c21)CNC3=O	89.3%
COc1cc2nccc(Oc3ccc(NC(=S)NC(=O)c4ccccc4C)cc3)c2cc1OC	100%
Cc1ccc(Nc2nccc(N(C)c3ccc4c(C)n(C)nc4c3)n2)cc1S(N)(=O)=O	107%
O=C1NC(=O)C(c2cn(CCCO)c3ncccc23)=C1c1cnccn1	92.9%
O=S(=O)(c1cccc2cnccc12)N1CCCNCC1	95%
Cn1sc(=O)n(Cc2ccccc2)c1=O	93.7%
Nc1[nH]nc2nc3ccccc3nc12	95.3%
COc1cc2ncnc(Nc3ccc(F)c(Cl)c3)c2cc1OCCCN1CCOCC1	107%
OCC(O)CCON=C1C(c2c(O)[nH]c3ccccc23)=Nc2ccccc21 (stereo not drawn)	44.9%
O=c1c2ccccc2[nH]c(=S)n1CCN1CCC(=C(c2ccc(F)cc2)c2ccc(F)cc2)CC1	94.3%
COc1ccc(OC)c2c(=S)c3ccccc3[nH]c12	102%
NCCNc1ncc(C(N)=O)c(Nc2cccc(C(F)(F)F)c2)n1	80%
Nc1ncnc2n[nH]c(Nc3ccc(F)cc3)c12	98.5%

For quick reference, copied from above (study 1):
target	effect on	method	remaining binding
CLK1 (Homo sapiens, UniProt P49759)	cell-free assay	competition with immobilised ligand	100%
Tyrosine-protein kinase ABL1, phosphorylated (ABL1, Homo sapiens, UniProt P00519, H396P)	cell-free assay	competition with immobilised ligand	100%
FRK (Homo sapiens, UniProt P42685)	cell-free assay	competition with immobilised ligand	100%
